Measured values pooled from the literature.
Each line is one published result; not all experiments were run side by side. ± marks the error that the study gave.

Compound | system | setting | tumour growth inhibition [%]
C[C@@H]1COCCN1c1cc([C@]2(O)C[C@H]3CC[C@@H](C2)O3)c2cnn(-c3cc[nH]n3)c2n1 | Granta-519 xenograft, mouse | 5 mg/kg QD x3, day 20 | 43.9 ± 4
C=CC(=O)Nc1cc(Nc2nccc(Nc3cc(Cl)c(F)cc3C(C)(C)O)n2)c(OC)cc1N1CC[C@@H](N(C)C)C1 | NCI-H2073 EGFR SVD knock-in, BALB/c nude mouse, NCI-H2073 xenograft | 12.5 mg/kg twice daily, 21 days | 27.6
COc1ccc(F)cc1C(=O)NCc1ccc(-c2nn([C@@H](C)C(F)(F)F)c(N)c2C(N)=O)cc1 | TMD8, mouse xenograft | oral, 30 mg/kg twice daily, day 14, 336 h | 101
O=C1CC[C@H](N2Cc3cc(N4CCN(CC5CCN(c6ccc([C@@H]7c8ccc(O)cc8CC[C@@H]7c7ccccc7)cc6)CC5)CC4)ccc3C2=O)C(=O)N1 | mouse MCF7 orthotopic xenograft | oral, 30 mg/kg once daily, 28 days | 120
COCc1cc(C(=O)Nc2cc([C@H]3CC[C@@H](OC(=O)NC(C)C)C3)[nH]n2)n(C)n1 | MCF7 xenograft, NSG mouse | oral twice daily, high dose | 82
CCCCc1nc2cc(/C=C/C(=O)NO)ccc2n1CCN(CC)CC | mouse, SET-2 subcutaneous xenograft | 125 mg/kg every other day, day 0 to 18 | 77
C[C@]12CC[C@H](n3ccnc3)CC1=CC[C@@H]1[C@@H]2CC[C@]2(C)C(n3cnc4ccccc43)=CC[C@@H]12.Cl.Cl | mouse CWR22Rv1 xenograft | oral, 20 mg/kg once daily, 16 days, 5 days per week | 153
Cl.O=C(c1cc(Cc2n[nH]c(=O)c3ccccc23)ccc1F)N1CC(CNC2CC2)C1 | athymic nude mouse, sample A ovarian PDX | oral, 50 mg/kg once daily, 63 days | 135

Repeated from above:
Compound | system | setting | tumour growth inhibition [%]
Cl.O=C(c1cc(Cc2n[nH]c(=O)c3ccccc23)ccc1F)N1CC(CNC2CC2)C1 | athymic nude mouse, sample A ovarian PDX | oral, 50 mg/kg once daily, 63 days | 135
